Results of several laboratories.
Each numbered part is a random draw from the data of one study; scales do not carry over between parts.
Sequence of UniProt Q9UQB9 (whole entry, looked up): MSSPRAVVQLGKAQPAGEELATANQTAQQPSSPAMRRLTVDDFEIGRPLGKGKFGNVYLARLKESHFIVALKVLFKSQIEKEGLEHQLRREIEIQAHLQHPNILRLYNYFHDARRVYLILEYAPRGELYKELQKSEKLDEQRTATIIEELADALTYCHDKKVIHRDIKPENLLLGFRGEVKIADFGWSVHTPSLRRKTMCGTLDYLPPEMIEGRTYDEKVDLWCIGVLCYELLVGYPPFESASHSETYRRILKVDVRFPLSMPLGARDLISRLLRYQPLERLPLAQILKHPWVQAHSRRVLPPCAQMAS
Sequence of UniProt P00519 (whole entry, unmodified, looked up): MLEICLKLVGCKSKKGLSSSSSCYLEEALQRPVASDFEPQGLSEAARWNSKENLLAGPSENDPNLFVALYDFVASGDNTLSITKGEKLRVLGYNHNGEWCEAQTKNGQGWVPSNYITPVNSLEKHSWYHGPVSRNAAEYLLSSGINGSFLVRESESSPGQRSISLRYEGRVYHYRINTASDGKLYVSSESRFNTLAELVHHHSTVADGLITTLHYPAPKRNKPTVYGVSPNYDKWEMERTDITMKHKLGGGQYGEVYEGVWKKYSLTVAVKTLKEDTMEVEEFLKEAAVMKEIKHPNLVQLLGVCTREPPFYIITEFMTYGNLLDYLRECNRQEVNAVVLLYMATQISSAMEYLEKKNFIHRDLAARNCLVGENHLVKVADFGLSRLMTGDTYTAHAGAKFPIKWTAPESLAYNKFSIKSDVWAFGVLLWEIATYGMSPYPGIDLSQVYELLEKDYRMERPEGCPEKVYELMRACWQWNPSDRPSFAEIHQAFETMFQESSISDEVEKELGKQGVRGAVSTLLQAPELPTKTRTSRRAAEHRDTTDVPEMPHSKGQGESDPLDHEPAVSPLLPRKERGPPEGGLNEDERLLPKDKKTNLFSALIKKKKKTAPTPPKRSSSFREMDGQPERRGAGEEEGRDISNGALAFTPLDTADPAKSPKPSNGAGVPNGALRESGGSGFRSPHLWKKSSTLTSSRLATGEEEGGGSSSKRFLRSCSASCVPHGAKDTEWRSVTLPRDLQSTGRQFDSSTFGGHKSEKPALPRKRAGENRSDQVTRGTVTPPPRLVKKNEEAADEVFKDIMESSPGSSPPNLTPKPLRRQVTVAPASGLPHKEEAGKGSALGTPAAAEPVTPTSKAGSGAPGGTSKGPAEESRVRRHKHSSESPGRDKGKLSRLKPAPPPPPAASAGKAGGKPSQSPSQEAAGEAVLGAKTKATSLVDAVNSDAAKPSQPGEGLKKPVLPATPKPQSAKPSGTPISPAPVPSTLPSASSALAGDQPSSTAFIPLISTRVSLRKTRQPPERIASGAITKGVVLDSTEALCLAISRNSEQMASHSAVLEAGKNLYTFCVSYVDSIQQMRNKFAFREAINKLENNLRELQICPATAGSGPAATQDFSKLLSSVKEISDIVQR
Sequence of UniProt Q9NRP7 (whole entry, looked up): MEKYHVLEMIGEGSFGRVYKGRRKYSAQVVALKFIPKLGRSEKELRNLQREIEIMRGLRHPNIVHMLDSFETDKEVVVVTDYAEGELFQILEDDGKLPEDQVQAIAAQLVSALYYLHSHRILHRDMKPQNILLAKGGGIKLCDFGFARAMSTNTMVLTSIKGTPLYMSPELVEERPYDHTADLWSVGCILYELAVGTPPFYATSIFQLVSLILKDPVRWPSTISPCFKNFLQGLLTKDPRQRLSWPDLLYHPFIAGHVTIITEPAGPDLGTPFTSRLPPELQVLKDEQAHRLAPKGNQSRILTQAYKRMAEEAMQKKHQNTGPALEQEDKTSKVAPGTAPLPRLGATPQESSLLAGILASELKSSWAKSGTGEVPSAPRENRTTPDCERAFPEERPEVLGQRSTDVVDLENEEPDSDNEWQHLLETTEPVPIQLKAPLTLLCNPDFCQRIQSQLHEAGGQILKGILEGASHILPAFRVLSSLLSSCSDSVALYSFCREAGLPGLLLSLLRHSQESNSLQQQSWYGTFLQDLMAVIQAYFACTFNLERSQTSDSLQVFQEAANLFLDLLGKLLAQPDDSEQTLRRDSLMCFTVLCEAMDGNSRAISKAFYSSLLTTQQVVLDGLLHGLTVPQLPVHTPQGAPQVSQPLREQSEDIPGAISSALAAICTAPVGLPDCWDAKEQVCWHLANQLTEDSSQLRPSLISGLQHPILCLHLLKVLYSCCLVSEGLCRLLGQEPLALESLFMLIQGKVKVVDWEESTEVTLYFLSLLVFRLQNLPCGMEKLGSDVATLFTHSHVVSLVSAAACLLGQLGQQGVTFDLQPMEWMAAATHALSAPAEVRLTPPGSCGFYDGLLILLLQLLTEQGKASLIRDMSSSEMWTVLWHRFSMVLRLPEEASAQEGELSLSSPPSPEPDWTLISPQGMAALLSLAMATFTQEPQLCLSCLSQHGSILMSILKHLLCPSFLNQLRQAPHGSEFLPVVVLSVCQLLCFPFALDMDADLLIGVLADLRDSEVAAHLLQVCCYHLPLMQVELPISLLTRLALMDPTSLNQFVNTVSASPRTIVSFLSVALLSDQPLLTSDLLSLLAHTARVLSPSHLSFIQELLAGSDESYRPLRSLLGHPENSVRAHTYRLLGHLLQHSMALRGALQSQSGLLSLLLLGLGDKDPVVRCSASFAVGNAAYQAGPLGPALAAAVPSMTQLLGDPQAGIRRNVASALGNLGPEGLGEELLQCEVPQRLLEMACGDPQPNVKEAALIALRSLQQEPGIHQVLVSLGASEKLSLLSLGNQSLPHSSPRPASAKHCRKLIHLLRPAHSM
Sequence of UniProt Q09013 (whole entry, looked up): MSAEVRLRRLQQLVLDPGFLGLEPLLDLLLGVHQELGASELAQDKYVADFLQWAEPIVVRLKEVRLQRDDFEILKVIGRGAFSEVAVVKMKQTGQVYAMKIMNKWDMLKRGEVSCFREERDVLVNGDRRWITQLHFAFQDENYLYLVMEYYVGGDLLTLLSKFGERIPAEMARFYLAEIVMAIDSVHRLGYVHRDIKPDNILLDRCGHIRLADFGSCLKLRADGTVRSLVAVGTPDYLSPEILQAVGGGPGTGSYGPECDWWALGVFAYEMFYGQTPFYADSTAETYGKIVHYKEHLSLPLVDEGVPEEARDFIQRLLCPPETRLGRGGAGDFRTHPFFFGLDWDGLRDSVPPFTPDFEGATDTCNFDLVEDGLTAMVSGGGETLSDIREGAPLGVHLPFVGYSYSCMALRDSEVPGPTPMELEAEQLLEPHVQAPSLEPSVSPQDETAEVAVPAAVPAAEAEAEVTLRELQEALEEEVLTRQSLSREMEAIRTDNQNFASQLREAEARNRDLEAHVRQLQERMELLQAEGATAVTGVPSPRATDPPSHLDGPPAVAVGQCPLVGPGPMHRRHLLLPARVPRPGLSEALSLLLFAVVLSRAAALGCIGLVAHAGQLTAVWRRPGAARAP
Sequence of UniProt Q86UX6 (whole entry, looked up): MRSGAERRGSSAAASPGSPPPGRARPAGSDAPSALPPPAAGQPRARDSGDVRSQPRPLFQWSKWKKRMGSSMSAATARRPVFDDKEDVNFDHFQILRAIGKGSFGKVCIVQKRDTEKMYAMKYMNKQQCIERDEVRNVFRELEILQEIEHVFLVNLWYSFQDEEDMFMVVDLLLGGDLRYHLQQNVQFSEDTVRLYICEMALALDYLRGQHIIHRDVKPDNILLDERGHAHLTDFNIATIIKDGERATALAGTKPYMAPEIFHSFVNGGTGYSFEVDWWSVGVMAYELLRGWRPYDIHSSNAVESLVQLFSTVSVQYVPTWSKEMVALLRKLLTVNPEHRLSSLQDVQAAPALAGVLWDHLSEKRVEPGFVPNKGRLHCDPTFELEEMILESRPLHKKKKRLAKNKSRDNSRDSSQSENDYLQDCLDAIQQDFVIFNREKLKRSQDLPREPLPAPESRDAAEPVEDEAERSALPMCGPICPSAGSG

Set 1
Target: Mitogen-activated protein kinase kinase kinase 7 (MAP3K7, Homo sapiens, UniProt O43318)
Sequence of UniProt O43318 (whole entry, looked up): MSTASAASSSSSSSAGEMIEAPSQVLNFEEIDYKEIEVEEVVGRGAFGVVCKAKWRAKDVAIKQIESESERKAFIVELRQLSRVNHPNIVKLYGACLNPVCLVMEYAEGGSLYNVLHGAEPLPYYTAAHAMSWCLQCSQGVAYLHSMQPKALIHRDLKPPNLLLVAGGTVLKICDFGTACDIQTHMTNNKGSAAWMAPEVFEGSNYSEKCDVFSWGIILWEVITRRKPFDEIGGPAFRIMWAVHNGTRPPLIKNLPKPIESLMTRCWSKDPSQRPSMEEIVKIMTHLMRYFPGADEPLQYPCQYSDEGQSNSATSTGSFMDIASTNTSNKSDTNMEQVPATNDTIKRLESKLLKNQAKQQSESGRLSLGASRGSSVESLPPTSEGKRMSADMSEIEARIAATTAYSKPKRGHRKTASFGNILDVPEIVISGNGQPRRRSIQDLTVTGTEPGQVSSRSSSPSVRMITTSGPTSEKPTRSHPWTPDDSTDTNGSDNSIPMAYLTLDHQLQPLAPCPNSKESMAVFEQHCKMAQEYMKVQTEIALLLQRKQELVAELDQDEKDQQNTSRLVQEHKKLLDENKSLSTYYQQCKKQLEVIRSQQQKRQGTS
Observed: enzyme activity
Mode: inhibitor
Tested at: 0.5 µM
Relative to: control
The remaining activity of `N#CC(C#N)=C(N)/C(C#N)=C/c1ccc(O)cc1` is reported as 94.8%.
For `Cn1c2ccccc2c2c3c(c4c5ccccc5n(CCC#N)c4c21)CNC3=O`, the remaining activity was 25.4%.
With `COc1cc2nccc(Oc3ccc(NC(=S)NC(=O)c4ccccc4C)cc3)c2cc1OC` the remaining activity was 95.6%.
For `COc1ccc(C(=O)Nc2sc3c(c2C(N)=O)CCCC3)cc1OC`, the remaining activity was 101%.
`O=C(Nc1cccc(Nc2cc(Nc3cccc(C(F)(F)F)c3)ncn2)c1)C1CC1` gave a remaining activity of 99.3%.
`O=c1c2ccccc2[nH]c(=S)n1CCN1CCC(=C(c2ccc(F)cc2)c2ccc(F)cc2)CC1` gave a remaining activity of 103%.
`Nc1ccc2ncnc(NCCc3ccc(Oc4ccccc4)cc3)c2c1` has a remaining activity of 96.2%.
For `CN(C)c1ccc(C=C2C(=O)Nc3ccccc32)cc1`, the remaining activity was 100%.
`CC(C)[C@H](CO)Nc1nc(Nc2cc(N)cc(Cl)c2)c2ncn(C(C)C)c2n1` has a remaining activity of 51.3%.
For `Nc1ncnc2n[nH]c(Nc3ccc(F)cc3)c12`, the remaining activity was 100%.
With `CCOC(=O)c1c(C)[nH]c(/C=C2\C(=O)Nc3ccccc32)c1C` the remaining activity was 85.8%.
With `O=C(O)c1ccc2c3c1cccc3c(=O)n1c3ccccc3nc21` the remaining activity was 74.4%.
With `Cn1sc(=O)n(Cc2ccccc2)c1=O` the remaining activity was 104%.
`OCC(O)CCON=C1C(c2c(O)[nH]c3ccccc23)=Nc2ccccc21` (stereo not drawn) has a remaining activity of 50.5%.
`Cc1ccc(NC(=O)c2ccc(CN3CCN(C)CC3)cc2)cc1Nc1nc(-c2cccnc2)cs1` has a remaining activity of 98.6%.

Set 2
Target: Ras GTPase-activating protein-binding protein 1, full length (G3BP1, Homo sapiens, UniProt Q13283)
Sequence of UniProt Q13283 (whole entry, looked up): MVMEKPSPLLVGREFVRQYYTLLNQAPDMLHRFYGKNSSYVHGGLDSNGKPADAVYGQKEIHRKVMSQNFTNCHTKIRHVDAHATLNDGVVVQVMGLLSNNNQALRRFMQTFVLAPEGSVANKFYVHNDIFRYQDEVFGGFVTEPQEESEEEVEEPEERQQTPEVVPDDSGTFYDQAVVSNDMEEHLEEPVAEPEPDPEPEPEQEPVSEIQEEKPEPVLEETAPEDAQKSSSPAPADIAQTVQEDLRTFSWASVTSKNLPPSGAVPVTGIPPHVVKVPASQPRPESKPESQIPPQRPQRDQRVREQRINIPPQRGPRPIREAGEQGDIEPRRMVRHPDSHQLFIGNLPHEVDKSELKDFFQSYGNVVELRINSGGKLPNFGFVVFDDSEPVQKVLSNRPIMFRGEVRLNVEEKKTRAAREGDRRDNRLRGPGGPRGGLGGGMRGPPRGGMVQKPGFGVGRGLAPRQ
Method: RNA Bind-n-Seq
Form: RNA
Matrix: in vitro
Tested at: 200 nM
Setting: whole 134-nt RNA, ends assumed
Added: 150 mM LiCl
Relative to: input library
Direction: higher = stronger binding
Library: 7-deaza-guanosine replaces G
`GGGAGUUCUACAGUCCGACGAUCAAGUCCUGUGCUACACAUCGUAUGUACCGAAUCGGGGUUUGGGGAGGGGAAAGGGGAAAGUAUUAUGUUACGCCGUUCGGAUCUGCACUUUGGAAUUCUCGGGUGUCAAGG` has a log2 enrichment of 0.0467.
With `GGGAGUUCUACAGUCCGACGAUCCACAGACAACACGCACCCACACAGACACAGAGGGAAGGGGUUGGGAUGGGGACAGGGAGCACAGCAGGGCGGGGUAGGACCCCAGCCCCUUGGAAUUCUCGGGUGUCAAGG` the log2 enrichment was 0.195.
For `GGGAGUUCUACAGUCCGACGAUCGUCCUGUGCUACACAUCGUAUGUACCGAAUCGGUUUUUUGGGGUUUUUUGGUUUUUUGGAAAGUAUUAUGUUACGCCGUUCGGAUCUGCAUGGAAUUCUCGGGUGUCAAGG`, the log2 enrichment was -0.987.
With `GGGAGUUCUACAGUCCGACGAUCGCAGGAAGUAAAAACAAAUGGAAAUGCUUCGGAUAGUGGCAGGGGUGGGGGUUGCUAAGGAAAGGGUGGGAUGGGAGUAAAUAAAGAGUUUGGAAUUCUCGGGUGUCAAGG` the log2 enrichment was -0.121.
For `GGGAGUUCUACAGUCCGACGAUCAAGUCCUGUGCUACACAUCGUAUGUACCGAAUCGGGGUUUUUGGGGUGGGGUGGGGAAAGUAUUAUGUUACGCCGUUCGGAUCUGCACUUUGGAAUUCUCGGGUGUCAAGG`, the log2 enrichment was -0.0424.
For `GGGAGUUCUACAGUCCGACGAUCUCCUGUGCUACACAUCGUAUGUACCGAAUCGGGCCCCCCGGGCCCCCCGGGCCCCCCGGGAAAGUAUUAUGUUACGCCGUUCGGAUCUGCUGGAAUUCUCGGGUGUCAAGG`, the log2 enrichment was -0.778.
The log2 enrichment of `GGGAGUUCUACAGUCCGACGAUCUGGCCCUGGUGGCAUGCGUGGAGGAAGAGGUGGCCUCAUGGAUCGUGGUGGUCCCGGUGGAAUGUUCAGAGGUGGCCGUGGUGGAGACAGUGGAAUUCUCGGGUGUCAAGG` is reported as 0.243.
With `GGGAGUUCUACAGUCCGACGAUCUGGGAGGUGGAUUUUGUUUAUUUUUUUACCUCAUUUCCAGGGGUGGGAAUUUUUUUUUAAUAUGUGUCAUGAAUAAAGUUGUUUUUGAAAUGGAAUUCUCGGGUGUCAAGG` the log2 enrichment was -0.46.

Set 3
Cell line: HaCaT
Tested at: 100 µM
Time: 36 h
`Nc1ncn([C@@H]2O[C@H](CO)[C@@H](O)[C@H]2O)c(=O)n1` gave a viability of 44%.
For `COc1ccc(CN=c2[nH]c(N3CCC[C@H]3CO)ncc2C(=O)NCc2ncccn2)cc1Cl`, the viability was 54.3%.
`Nc1nc(Cl)nc2c1ncn2[C@@H]1O[C@H](CO)[C@@H](O)[C@@H]1F` gave a viability of 45.8%.
The viability of `N[C@H](Cc1ccccc1)C(=O)O` is reported as 96.6%.
For `NC12CC3CC(CC(C3)C1)C2`, the viability was 92.4%.

Set 4
SMILES: O=C(Nc1cccnn1)N1CC(C/C=C/c2cncc(Oc3ccc(C(F)(F)F)cn3)n2)C1
Observed: cell-free assay
Method: competition with immobilised ligand
Tested at: 1 µM
For STK32C (Homo sapiens, UniProt Q86UX6): remaining binding read 100%.
The remaining binding was 100% (STK36 (Homo sapiens, UniProt Q9NRP7)).
The remaining binding was 100% (DMPK (Homo sapiens, UniProt Q09013)).
It gave 58% for remaining binding (Tyrosine-protein kinase ABL1, non-phosphorylated (ABL1, Homo sapiens, UniProt P00519, F317L)).
Aurora kinase C (AURKC, Homo sapiens, UniProt Q9UQB9) — remaining binding: 100%.

Repeated from above (set 1):
`O=c1c2ccccc2[nH]c(=S)n1CCN1CCC(=C(c2ccc(F)cc2)c2ccc(F)cc2)CC1` gave a remaining activity of 103%.
`Nc1ccc2ncnc(NCCc3ccc(Oc4ccccc4)cc3)c2c1` has a remaining activity of 96.2%.
For `CN(C)c1ccc(C=C2C(=O)Nc3ccccc32)cc1`, the remaining activity was 100%.
